Experimental data collected from several papers.
Numbered parts are unrelated; each lists some results of a single study. Positions count from the first letter of the parent shown.

Sample 1
Target: CEBPA, bZIP domain (human)
Method: DHFR protein complementation
Medium: yeast
Setting: single substitutions, most at no-binding floor
Relative to: wild-type JUN-FOS pair
Direction: higher = stronger binding
Parent: JUN, bZIP domain (human); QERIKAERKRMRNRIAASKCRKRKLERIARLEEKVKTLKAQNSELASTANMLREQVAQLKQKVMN; partner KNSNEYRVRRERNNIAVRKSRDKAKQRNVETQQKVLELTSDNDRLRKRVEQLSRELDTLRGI
Substitution | binding fitness [natural log]
L38K | -1.5
I28Q | -1.34
L59C | -1.57
L52A | -1.51
A46F | -1.36
K34F | -1.58
A46R | -1.35
V35Q | -1.55
S43C | -1.36
K36D | -1.46

Sample 2
Target: RING finger protein unkempt homolog, zinc fingers 1-6, GST-SBP tag (UNK, Homo sapiens, UniProt Q9C0B0, residues 30-357)
UniProt Q9C0B0, sequence (30-357, looked up): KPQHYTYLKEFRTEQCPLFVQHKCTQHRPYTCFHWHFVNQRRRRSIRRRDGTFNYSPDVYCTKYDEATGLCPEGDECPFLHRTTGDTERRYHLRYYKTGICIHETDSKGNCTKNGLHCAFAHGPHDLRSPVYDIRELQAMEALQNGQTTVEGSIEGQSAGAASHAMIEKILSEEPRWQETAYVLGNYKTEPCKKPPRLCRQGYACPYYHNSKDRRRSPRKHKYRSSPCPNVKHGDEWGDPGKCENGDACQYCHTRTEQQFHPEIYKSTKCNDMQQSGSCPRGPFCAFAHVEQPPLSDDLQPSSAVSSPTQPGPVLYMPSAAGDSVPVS
Method: RNA Bind-n-Seq
Form: RNA
Medium: in vitro
Tested at: not given
Setting: RNA with constant flanks, ends assumed
Relative to: input RNA pool
Direction: higher = stronger binding
All sequences stand within: GGGAGUUCUACAGUCCGACGAUC … CAACAGAGGAUUGAGCAUCA
Sequence | bound/input enrichment
UUCUAUAACACUGGUUGAGAAAGUUCAGAUGAUCGCUGUAAUCCUAGGAUCCCUGUUCUUAACCGCGAGUGUGACUUGGCUCCUCUGGUCAGCCUUCAGCCCCUAUGCAGUGUGGCAGAG | 0.144 ratio
GCUGCGCAAAUGAAUGGUAAACCAGAAUCCAGUUCUGUGGUUCGAACUAGGAGCAACCGUGCCGCUGCCGAUCCAGUUGUCACCGAGCAGCCCUCUACAUCAUCAGCCACAAAAGCUUUU | 0.185 ratio
UCUUAUAAUAGUCUAGUGCUAUAGAUGUUCAUGGAUUGUUUGAUGCUCCAUAACUCCUCAUUCCGAUAACUUUUUAGUAACAGCAUCUUCCAGUGGCGACAAAAUAGUUGUCUCAAGUUG | 0.345 ratio
GCACUUCUCAAAUACUGGCCAAAGACUCACAGUCCAAAAGAAGUAAUGUUCUUAAAUGAAUCCGAAGAAAUUUUAGAUGUAAUUGAACCAUCAGAGUUUGUGAAGAUCAUGGAGCCUCUU | 0.286 ratio
GGUUCUCUGCCCCCACCCCCGGCCCUUUGUUUGACUUGCGUCGUCUGAUACUCAGUAUUGCCGCUUUUUGUCCGCAUGUUACUCCCUGUAAAUACGCUGUUAUACAUACUGUUAACACCC | 1.02 ratio
GGCCUCUCGCUGGUGCCCGUGAUCUUUGUUCUGUAUCGUUGGGGGGAGGUGAGAUCAGUCAACCGGGGUGUUGCUGUUUCCCAUCCCUGCCCCCCCCCCCCAAUUGUUAAUUUUAAGCUG | 0.18 ratio
UUGUCCCCAGGUGGGGGGAAGCAGGGGAGAGAAAAUGGUAGCCAUUUUUACAUUGUUUUGUACCGUAUUUAUUGAUUCAGGAAACAAACACAAAAUUCUGAAUAAAAUGACUUGGAAACU | 0.375 ratio
CUGAGCCCAGGGUCCCAAAUCAACGUGCUGGAAGACCCAGGCUACCUAGAUCUCACACAAACCGAAGCAAGCAAACCUCACAGUGCCCAGUUUUUGCUACCAGUUGAGAUGUUUGGUCCU | 0.334 ratio
GAAAAUCCAUAUGACCUUGAUGCUUGGAGCAUUCUCAUUCGAGAGGCACAGAAUCAACCUACCGACAAAGCACGGAAGACUUACGAACGCCUUGUUGCCCAGUUCCCCAGUUCUGGCAGA | 0.139 ratio

Sample 3
Target: PABPC1L2, full length, GST fusion (mouse, UniProt A0ABA7IW68)
Method: RNAcompete
Form: RNA
Medium: in vitro
Tested at: 20 nM
Setting: 7-mer, probes averaged, single round
Relative to: mean of 7-mers
Direction: higher = stronger binding
Target sequence (chain): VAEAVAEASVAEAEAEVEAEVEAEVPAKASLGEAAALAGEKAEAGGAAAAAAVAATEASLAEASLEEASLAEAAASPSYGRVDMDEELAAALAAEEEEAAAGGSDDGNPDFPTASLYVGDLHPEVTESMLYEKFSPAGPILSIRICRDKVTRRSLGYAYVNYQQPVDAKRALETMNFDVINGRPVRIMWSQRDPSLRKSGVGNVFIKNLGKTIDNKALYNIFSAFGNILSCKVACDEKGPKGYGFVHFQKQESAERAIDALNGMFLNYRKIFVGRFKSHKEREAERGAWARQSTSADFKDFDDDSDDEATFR
Sequence | 7-mer Z-score
CAAUUGU | -0.295
AUAUUCU | -0.226
ACAGACG | 0.122
CCGUGAC | -0.175
CGGUAGG | -0.0518
CUGAUUA | -0.255
UCCGCGC | -0.36
GACGUAU | -0.246
CUGUGUA | -0.15
GUUAUAU | -0.291
AUCGCUC | -0.316
GAAGCGG | 0.222
CCAUCUG | -0.414
GCCAAGU | -0.157
UUUUAAG | 0.126
UAACGAG | -0.0645
GCAGUUA | -0.0138
UAUUAGG | 0.106
UAUGGUC | -0.0899
CGGGUUG | -0.0971

Sample 4
Target: Histone acetyltransferase KAT6A, winged helix 1, GST fusion (KAT6A, Homo sapiens, UniProt Q92794, residues 1-85)
Method: protein binding microarray
Form: double-stranded DNA, one strand shown
Medium: in vitro
Tested at: not given
Setting: 8-mer, flanks averaged, mean of 2 arrays, mostly near background
Relative to: not given
Direction: higher = stronger binding
Construct (chain): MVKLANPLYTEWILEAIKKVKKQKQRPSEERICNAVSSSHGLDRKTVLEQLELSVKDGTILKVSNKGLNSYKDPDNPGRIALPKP
Sequence | E-score
GCAACGTA | -0.0239
ACGTCTCT | -0.0365
AGGATCTG | -0.297
CCCGAAAA | -0.0442
CAAAGCGG | 0.249
GACCTGCC | -0.0518
AATGGCTA | -0.199
CCCACTCC | -0.0624
AGTCAAAC | -0.1
CCCCCGAA | 0.0509
GCAGACGA | -0.0511
CGTGGCGC | 0.339
AAAAAAAA | -0.157
GCTGTCTA | 0.0354
CAATGCAC | -0.103
CGCTTCAA | 0.245
ACTGAACA | -0.137
GTTAGAAC | -0.0617
CCGGGATC | 0.328
CAGAAATG | -0.174
CTTACTCC | -0.029
TTAATTAA | -0.248
CCTCCATA | -0.00037
GATGTGGA | -0.0989
GTGGACCA | -0.136

Sample 5
Target: CCNE1, cyclin fold, Cln2 fusion (human)
Method: yeast growth competition, sequencing
Medium: yeast
Setting: strong parent motif
Relative to: not given
Direction: higher = stronger binding
Parent: SCAPER docking peptide (human); SNARRSLNFGGST
Substitution | normalised enrichment score
R5P | 0.121
F9W | 1.19
S6C | 2.74
S12Y | 0.998
S1H | 0.625
S6W | 2.24
N2V | 0.532
S6K | 4.66
F9C | -0.128
R4P | -0.387
G11V | 1.32
S1E | -0.029
S1C | 1.14
G11H | 1
R4D | 0.383
G11T | 1.75
R4V | 1.14
S1W | 1.53
N8E | 0.663
N8R | 0.652
R4K | 0.391
R4W | 0.473
S6L | 1.07
N2Q | 0.642

Sample 6
Target: RNA binding protein fox-1 homolog 2, RRM domain, GST-SBP tag (RBFOX2, Homo sapiens, UniProt O43251-10, residues 100-194)
Method: RNA Bind-n-Seq
Form: RNA
Medium: in vitro
Tested at: 365 nM
Setting: natural RNA segment, single round, ends assumed
Relative to: no-protein control
Direction: higher = stronger binding
All sequences stand within: GGGAGUUCUACAGUCCGACGAUC … UGGAAUUCUCGGGUGCCAA
Target sequence (chain): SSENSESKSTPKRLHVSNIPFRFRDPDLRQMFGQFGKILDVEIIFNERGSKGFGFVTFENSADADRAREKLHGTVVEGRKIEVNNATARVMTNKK
Sequence | RBNS enrichment (R)
AGAGUCUGGGUUGGUGUGGAUAGCAAAGGAGGAAGUCUGAGCCCCUCAUUGGUCUUCCUCCCACCUGUCCCUUUUCCGGGAAGUUGUGGAAUUGUUGGAAGAAGAGUUUG | 0.764
AUUUUCUUUUAGUGAUACUGUUACCAGUGGCAGUUUGCUUUACAGAGGGGGAGCCCAGGUGGGAGAGAAAUGGGCUUGGGUUCCAUUCUCAGAAGUGAAUUGCAGACUGG | 1.01
AUGAACUGCAGGCCCCCUUUUGCCAUUGAUCUCAAAGCACUUGUCCUCAGGAUAGGGAAGAGCAGGGGGAUGCAGGAAUAGCAGGGAUAGCUUGCUCCCAGCCCCCUCCC | 1.07
AAGCUAAGUAAUUUUAUUUAAUAUGAUUACAUGUCGUCAGUCAUGAGUGAGGUGUAGGGAGUCUCCCUCCCCAAGUGGCCAUGUUUACAGAGUGUUGUCUACAAAGUGCA | 0.574
UCCUAGAACCACUGAGUUUCUAGUUUAAUAGUUUGCUAUGCAAAUGACCACCUAAAACAAUACUUUAUAUUGUUAUUUUUAGAAAGACUCAAAACACCUGUAUUUAAACC | 0.409
GUGCUUGUAAGUGGUUAAAUAAUUUGUAAGCAUUUUUGAUCUGUCUGUCUGUCUCUACAUGGAUGGACUGAAUAAGAAUGUAAAUAAUAUUUAUUGCAAAGCAAGCCUGG | 0.298
GUUAAAUAGCCCUUGAUGACUUUUCAUGUGGCAUGAGAGGGAUAUGCUUAUAAAGCUUAAUUCUGAUAUUAUCCUCUUACUACCUACAGUAUGUUUUGCAAAAAUCAGUC | 0.423
GUUGUUUUGGAGCCUGUUGACUUUGUAUCUCUGCCUGUGAUUUUCUUUUCUAAAUGAAACUCCAUGUAGCAACCAGGACGAAGUUGAGAAGGAAAACGCCAAAUGCUUUG | 0.611
CUCCGUGCUGUCCAGGAAUUGUUUUAUGUAUUAUUGUCAUUGCAGAAAAGGUAGUGGCCGAGCUGGUAUGGGCACAGACAGAUUGCUUUGUUCUUUCAUUUCUCCCAGCA | 6.8
AUUAUGUACAUCAAAGAUAUCCUAGAUGUAGAGACGAUGGUGUCUGGGAUAAAAGGCAGAGUUAGUUUCUCUCAUAGCAUAUAUUGGCAGAAAUGGUUCUGCAAGAUGCU | 1.61
AUAACAUUUUAGAAGCAAAGAACAAGCCUUUCUAAAUCUUCAGCUGUCAGCGUUUGGCAUUUAAUCUUUUUGCCAUUUUAAUUUGCCUACUUACAUUGUGUUCAUAUAUU | 0.607
UUUUGUCUACGGCCUGGGAAGAUGUUCUCCAGCCCCUGAGCCUAUUGGUUGGAUAGAGAGAGACUGUGGUGGAAAUGAGGGUCUUGCUGGGAGGGGUCCAUGACUCCGGG | 0.646

Repeated from above (sample 3):
Sequence | 7-mer Z-score
CUGAUUA | -0.255
UCCGCGC | -0.36
GACGUAU | -0.246
CUGUGUA | -0.15
GUUAUAU | -0.291
AUCGCUC | -0.316
GAAGCGG | 0.222
CCAUCUG | -0.414
